Measurements gathered from unrelated publications.
Lines come from different studies, so protocols differ. Numbers after ± are the reported error.

`COc1ccc2c(c1)C(C)(C)C(/C=C/C1=C(Oc3ccc(C(=O)NCCCCOc4cc(CN(Cc5ccccn5)Cc5ccccn5)cc(CN(Cc5ccccn5)Cc5ccccn5)c4)cc3)C(=C/C=C3/N(CCCCS(=O)(=O)[O-])c4ccc(OC)cc4C3(C)C)CCC1)=[N+]2CCCCS(=O)(=O)[O-].O=[N+]([O-])[O-].O=[N+]([O-])[O-].[99Tc+].[C-]#[O+].[C-]#[O+].[C-]#[O+].[Zn+2]` has a tissue uptake of 1.9 %ID/g (BALB/c mice, S. aureus myositis, heart; 12 h post-injection).
The tissue uptake of `COc1cccc(OC)c1-c1cc(C(=O)NC2(C(=O)O)C3CC4CC(C3)CC2C4)nn1-c1ccc(C(=O)NCCNC(=O)[C@H](CCCCNC(=O)[C@H](CC(C)C)NC(=O)C2OC2C(=O)O)NC(=O)CN2CCN(CC(=O)[O-])CCN(CC(=O)[O-])CCN(CC(=O)[O-])CC2)cc1C(C)C.[177Lu+3]` (mixture of isomers) is reported as 1.09 %ID/g (mouse, HT-29 xenograft, liver; 24 h post injection).
For `Cc1cc(C)n(CCN(CCN)CCCCCCNC(=O)[C@@H](N)Cc2c[nH]cn2)n1.[99Tc+].[C-]#[O+].[C-]#[O+].[C-]#[O+]`, the tissue uptake was 0.86 ± 0.02 %IA/g (BALB/c nude mice, MCF7 xenograft, stomach; intravenous, 15 min).
With `[123I]c1ccc2nc(-c3ccc(-n4ccnn4)nc3)cn2c1` the tissue uptake was 0.179 ± 0.188 %ID/g (Wistar rat, male, red marrow; intravenous, 4 MBq, 30 min).
`N#C[C@@H]1CC(F)(F)CN1C(=O)CNC(=O)c1ccnc2c(NC(=O)[C@@H](N)CCCCNC(=O)CCOCCOCCOCCOCCOCCOCCNC(=O)CN3CCN(CC(=O)[O-])CCN(CC(=O)[O-])CCN(CC(=O)[O-])CC3)cccc12.[177Lu+3]` gave a tissue uptake of 0.05 ± 0.01 %ID/g (mouse, U-87 MG tumour xenograft, spleen; 48 h).
`O=C(O)CCCOc1ccc([18F])cc1-c1cc(-c2ccccc2C(F)(F)F)n(-c2ccccc2)n1` has a tissue uptake of 0.03 ± 0.01 %ID/g (mouse, bladder; intravenous, dose not given, 15 min).
For `[11CH3]N1CCC(NC(=O)c2cc(-c3c(O)cc(O)cc3Oc3ccc([N+](=O)[O-])cc3)on2)CC1`, the tissue uptake was 0.4 %ID (Wistar rat, female, healthy, spleen; intravenous, 30 min).
`COc1cccc(OC)c1-c1cc(C(=O)NC2(C(=O)O)C3CC4CC(C3)CC2C4)nn1-c1ccc(C(=O)N(C)CCOCCOCCN(C)C(=O)[C@H](CCCCNC(=O)[C@H](CC(C)C)NC(=O)C2OC2C(=O)O)NC(=O)CN2CCN(CC(=O)[O-])CCN(CC(=O)[O-])CCN(CC(=O)[O-])CC2)cc1C(C)C.[177Lu+3]` (mixture of isomers) gave a tissue uptake of 0.29 %ID/g (mouse, HT-29 xenograft, heart; 24 h post injection).
`O=C(NCC1OC2CCC=CCCC2O1)c1ccc([18F])nc1` (centres unmarked) gave a tissue uptake of 11.3 ± 2.3 %ID/g (healthy female BALB/c nude mice, kidneys; intravenous, 7.4 MBq per mouse, 5 min).
For `CCCC[C@H](NC(=O)CCCCCCCNC(=O)CN1CCN(CC(=O)O)CCN(CC(=O)O)CC1)C(=O)N[C@H]1CC(=O)NCCCC[C@@H](C(N)=O)NC(=O)[C@H](Cc2c[nH]c3ccccc23)NC(=O)[C@H](CCCNC(=N)N)NC(=O)[C@@H](Cc2ccccc2)NC(=O)[C@H](Cc2c[nH]cn2)NC1=O` [fluorine-18 labelled], the tissue uptake was 4.22 ± 0.37 %ID/g (C57 mice B16-F10 melanoma, kidneys; intravenous, 0.37 MBq, 2 h).
`N#C[C@@H]1CC(F)(F)CN1C(=O)CNC(=O)c1ccnc2c(NC(=O)[C@H](CCCCNC(=O)CCOCCOCCOCCOCCOCCOCCNC(=O)CN3CCN(CC(=O)[O-])CCN(CC(=O)[O-])CCN(CC(=O)[O-])CC3)NC(=O)CCCc3ccc(I)cc3)cccc12.[177Lu+3]` gave a tissue uptake of 0.04 ± 0.1 %ID/g (mouse, U-87 MG tumour xenograft, brain; 72 h).
The tissue uptake of `COc1cccc(OC)c1-c1cc(C(=O)NC2(C(=O)O)C3CC4CC(C3)CC2C4)nn1-c1ccc(C(=O)N(C)CCOCCN(C)C(=O)[C@H](CCCCNC(=O)[C@H](CC(C)C)NC(=O)C2OC2C(=O)O)NC(=O)CN2CCN(CC(=O)[O-])CCN(CC(=O)[O-])CCN(CC(=O)[O-])CC2)cc1C(C)C.[177Lu+3]` (mixture of isomers) is reported as 0.192 %ID/g (mouse HT-29 xenograft, small intestine; 24 h post injection, biodistribution).
For `N#C[C@@H]1CC(F)(F)CN1C(=O)CNC(=O)c1ccnc2c(NC(=O)CCOCCOCCOCCOCCOCCOCCNC(=O)[C@H](CCCCNC(=O)CN3CCN(CC(=O)[O-])CCN(CC(=O)[O-])CCN(CC(=O)[O-])CC3)NC(=O)CCCc3ccc(I)cc3)cccc12.[177Lu+3]`, the tissue uptake was 0.42 ± 0.09 %ID/g (mouse, U-87 MG tumour xenograft, lung; 24 h).
For `CCCC[C@H](NC(=O)CNC(=O)CNC(=O)[C@H](CCCCNC(=O)[C@H](CC(=O)O)NC(=O)C(C)c1ccc(CC(C)C)cc1)NC(=O)CN1CCN(CC(=O)O)CCN(CC(=O)O)CCN(CC(=O)O)CC1)C(=O)N[C@H]1CC(=O)NCCCC[C@@H](C(N)=O)NC(=O)[C@H](Cc2c[nH]c3ccccc23)NC(=O)[C@H](CCCNC(=N)N)NC(=O)[C@@H](Cc2ccccc2)NC(=O)[C@H](Cc2c[nH]cn2)NC1=O` (some centres unmarked) [lutetium-177 labelled], the tissue uptake was 1.76 ± 0.59 %ID (C57 mouse, intestines; intravenous, 0.037 MBq, 0.5 h).
With `CC(C)Cc1ccc(C(C)C(=O)N[C@@H](CCCCNC(=O)CCOCCOCCOCCOCCOCCOCCNC(=O)CN2CCN(CC(=O)[O-])CCN(CC(=O)[O-])CCN(CC(=O)[O-])CC2)C(=O)Nc2cccc3c(C(=O)NCC(=O)N4CC(F)(F)C[C@H]4C#N)ccnc23)cc1.[177Lu+3]` (some centres unmarked) the tissue uptake was 1.88 ± 0.3 %ID/g (mouse, U-87 MG tumour xenograft, spleen; 4 h).
`COc1cccc(OC)c1-c1cc(C(=O)NC2(C(=O)O)C3CC4CC(C3)CC2C4)nn1-c1ccc(C(=O)N(C)CCCN(C)C(=O)[C@H](CCCCNC(=O)[C@H](CC(C)C)NC(=O)C2OC2C(=O)O)NC(=O)CN2CCN(CC(=O)[O-])CCN(CC(=O)[O-])CCN(CC(=O)[O-])CC2)cc1C(C)C.[177Lu+3]` (mixture of isomers) has a tissue uptake of 0.76 %ID/g (mouse, HT-29 xenograft, liver; 168 h post injection).
With `COc1ccc(Nc2nc(Nc3ccc(OCCOCC[18F])cc3)ncc2Br)cc1` the tissue uptake was 0.47 ± 0.08 %ID (ICR mice, S180 tumour, stomach; intravenous, 370 kBq, 5 min).

Repeated from above:
With `[123I]c1ccc2nc(-c3ccc(-n4ccnn4)nc3)cn2c1` the tissue uptake was 0.179 ± 0.188 %ID/g (Wistar rat, male, red marrow; intravenous, 4 MBq, 30 min).
`N#C[C@@H]1CC(F)(F)CN1C(=O)CNC(=O)c1ccnc2c(NC(=O)[C@@H](N)CCCCNC(=O)CCOCCOCCOCCOCCOCCOCCNC(=O)CN3CCN(CC(=O)[O-])CCN(CC(=O)[O-])CCN(CC(=O)[O-])CC3)cccc12.[177Lu+3]` gave a tissue uptake of 0.05 ± 0.01 %ID/g (mouse, U-87 MG tumour xenograft, spleen; 48 h).
